Measured values gathered from unrelated publications.
Parts stem from different laboratories: compare values within a part only. Positions count from the first letter of the parent shown.

Block 1
Target: PABPC1L2, full length, GST fusion (mouse, UniProt A0ABA7IW68)
Technique: RNAcompete
Form: RNA
Matrix: in vitro
Concentration: 20 nM
Notes: 7-mer, probes averaged, single round
Baseline: mean of 7-mers
Reading: higher = stronger binding
Quantity: 7-mer Z-score
Construct (chain): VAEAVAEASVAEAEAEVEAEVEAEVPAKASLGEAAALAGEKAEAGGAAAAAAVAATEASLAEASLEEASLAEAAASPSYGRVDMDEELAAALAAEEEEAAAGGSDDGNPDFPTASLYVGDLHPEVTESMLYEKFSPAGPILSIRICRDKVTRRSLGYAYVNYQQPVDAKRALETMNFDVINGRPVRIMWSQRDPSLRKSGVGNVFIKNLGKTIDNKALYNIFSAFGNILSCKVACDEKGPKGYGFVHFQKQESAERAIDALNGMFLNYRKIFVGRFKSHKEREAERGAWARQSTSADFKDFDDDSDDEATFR
AAUUCCA: 0.0587
GACCCGU: -0.306
GAAGGAG: 0.131
ACUUGUA: -0.208
CUAACGC: -0.396
GCUGGAG: 0.0424
UGUCACU: -0.282
UUCGUGU: -0.398

Block 2
Target: Protein max, full length (MAX, Homo sapiens, UniProt P61244-2, residues 1-151)
Technique: protein-binding microarray
Form: double-stranded DNA, one strand shown
Matrix: in vitro
Concentration: not given
Notes: k-mer, scored over probes, only values ≥0.25
Reading: higher = stronger binding
Quantity: E-score
CACTCACG: 0.319
CACCTGTC: 0.331
ACGCACGT: 0.403
CCACGTTC: 0.381
CCACGCTC: 0.395
AGAGCGTG: 0.379
ACGCTGAT: 0.285
ACCTGCTG: 0.266

Further values, each from its own experiment
P1: viral docking peptide; KKVKRRLFETREL; partner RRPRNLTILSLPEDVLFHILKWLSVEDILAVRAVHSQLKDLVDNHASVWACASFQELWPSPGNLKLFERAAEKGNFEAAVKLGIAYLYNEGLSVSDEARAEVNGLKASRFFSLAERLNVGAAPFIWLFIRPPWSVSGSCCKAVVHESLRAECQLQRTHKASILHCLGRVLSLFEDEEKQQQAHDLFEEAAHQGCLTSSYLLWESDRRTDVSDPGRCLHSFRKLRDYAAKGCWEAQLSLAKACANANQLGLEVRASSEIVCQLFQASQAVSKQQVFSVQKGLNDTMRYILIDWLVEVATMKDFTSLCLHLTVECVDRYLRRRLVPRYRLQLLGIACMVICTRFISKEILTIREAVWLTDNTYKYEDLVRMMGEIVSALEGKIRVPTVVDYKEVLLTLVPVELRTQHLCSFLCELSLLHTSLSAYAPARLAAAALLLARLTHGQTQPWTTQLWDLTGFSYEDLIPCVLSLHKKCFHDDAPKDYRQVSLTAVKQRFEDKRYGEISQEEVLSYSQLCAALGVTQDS
CANX (Homo sapiens, UniProt P27824) — cross-linked residues (PDIA3 (Homo sapiens, UniProt P30101); cross-linking MS; cell fractions; added: DSSO): K384 to K129
P1 E9A — normalised enrichment score (CCNF, cyclin fold, Cln2 fusion (human); yeast growth competition, sequencing; yeast; strong parent motif; baseline: not given, higher = stronger binding): 6.9
KHDRBS3 (Homo sapiens, UniProt O75525) — interaction screen (KHDRBS1 (Homo sapiens, UniProt Q07666); cross-linking MS; hits only): cross-linked

Excerpt of the above (block 2):
CCACGCTC: 0.395
AGAGCGTG: 0.379
ACGCTGAT: 0.285
